Published values gathered from unrelated publications.
Compare with care: the assays were run in different laboratories. ± marks the error that the study gave.

SMILES	tested on	test	test system	conditions	scale	quantity	result
c1ccc2c(c1)ccc1cc3c(ccc4ccccc43)cc12	–	–	fresh water	12 (unit not given), 20 °C, SSP sampler, 100 µm	–	log K(PDMS-water)	5.07 ± 0.21
C=CCc1ccccc1OCC(O)CNC(C)C (stereo not shown)	Plasmodium falciparum	–	3D7	–	–	IC50	10 µM
CC(=O)N[C@@H](CC(N)=O)C(=O)N[C@@H](CCCNC(=N)N)C(=O)N[C@@H](CC(C)C)C(=O)N[C@H]1CSSC[C@@H](C(=O)N[C@H](C(N)=O)[C@@H](C)O)NC(=O)[C@H](CCCNC(=N)N)NC(=O)[C@H](Cc2c[nH]cn2)NC(=O)[C@H](Cc2cccc3ccccc23)NC(=O)CNC(=O)[C@H](Cc2c[nH]c3ccccc23)NC(=O)[C@H](CC(=O)O)NC(=O)[C@H](CCC(N)=O)NC(=O)[C@H](Cc2cccc3ccccc23)NC(=O)[C@H](C(C)C)NC1=O	–	isocratic RP-HPLC	C18 column	pH 7.4, 25 °C, elution method 2	higher = more lipophilic	log retention factor	0.863
Clc1ccc(-c2ccc(Cl)c(Cl)c2)cc1Cl	–	–	fresh water	20 °C, SSP sampler, 100 µm	–	log K(PDMS-water)	5.44 ± 0.04
Oc1ccc(C(c2ccc(O)cc2)(C(F)(F)F)C(F)(F)F)cc1	–	–	octanol/water	–	–	log D octanol/water	4.47
CC[C@H](C)[C@H](NC(=O)[C@H](CO)NC(=O)[C@H](CCCNC(=N)N)NC(C)=O)C(=O)N[C@H]1CSSC[C@@H](C(=O)N[C@H](C(N)=O)[C@@H](C)O)NC(=O)[C@H](CCCNC(=N)N)NC(=O)[C@H](Cc2c[nH]cn2)NC(=O)[C@H](C)NC(=O)CNC(=O)[C@H](Cc2c[nH]c3ccccc23)NC(=O)[C@H](CC(=O)O)NC(=O)[C@H](CCC(N)=O)NC(=O)[C@H](Cc2ccc3ccccc3c2)NC(=O)[C@H](C(C)C)NC1=O	–	isocratic RP-HPLC	C18 column	pH 7.4, 25 °C, elution method 2	higher = more lipophilic	log retention factor	0.091
CN1CC[C@]23c4c5ccc(O)c4O[C@H]2[C@@H](O)C=C[C@@]3(O)[C@H]1C5	–	–	–	phenolate site	–	log k protonation constant	9.17
CC(=O)N[C@@H](CC(N)=O)C(=O)N[C@@H](CCCNC(=N)N)C(=O)N[C@@H](CC(C)C)C(=O)N[C@H]1CSSC[C@@H](C(=O)N[C@H](C(N)=O)[C@@H](C)O)NC(=O)[C@H](CCCNC(=N)N)NC(=O)[C@H](Cc2c[nH]cn2)NC(=O)[C@H](Cc2cccc3ccccc23)NC(=O)CNC(=O)[C@H](Cc2c[nH]c3ccccc23)NC(=O)[C@H](CC(=O)O)NC(=O)[C@H](CCC(N)=O)NC(=O)[C@H](Cc2c[nH]c3ccccc23)NC(=O)[C@H](C(C)C)NC1=O	–	isocratic RP-HPLC	C18 column	pH 7.4, 25 °C, elution method 2	higher = more lipophilic	log retention factor	0.43
Clc1ccc(-c2cc(Cl)c(Cl)cc2Cl)cc1Cl	–	–	fresh water	20 °C, S100 sampler, 100 µm	–	log K(PDMS-water)	6.04 ± 0.04
CN(C)C(=O)Oc1cccc2c1[n+]([O-])c1cccc(O)c1[n+]2[O-]	–	PAMPA	artificial membrane in PBS	50 µM, 5 h	–	log effective permeability	-5.06
Cc1cc(O)ccc1Cl	–	SPME sorption isotherm	PBS	–	–	log Freundlich coefficient	1.52
c1ccc2c(c1)cc1ccc3cccc4ccc2c1c34	–	–	fresh water	12 (unit not given), 20 °C, S30-2 sampler, 30 µm	–	log K(PDMS-water)	5.24 ± 0.03
COc1cccc2c1[n+]([O-])c1cccc(OC(=O)N3CCN(C)CC3)c1[n+]2[O-]	–	PAMPA	artificial membrane in PBS	50 µM, 5 h	–	log effective permeability	-5.74
Clc1ccc(-c2ccc(Cl)cc2Cl)cc1	–	–	fresh water	20 °C	–	log K(PDMS-water)	5.2 ± 0.05
CN1CC[C@]23c4c5ccc(O)c4O[C@H]2[C@@H](O)CC[C@@]3(O)[C@H]1C5	–	–	–	phenolate protonated	–	log k amino protonation	9.48
COc1ccnc(C(=O)N[C@H]2COC(=O)[C@H](Cc3ccccc3)[C@@H](OC(=O)C(C)C)[C@H](C)OC2=O)c1OCOC(=O)C(C)C	–	–	–	pH 7, 20 °C	–	log Kow	4.4

SMILES	tested on	test	test system	conditions	scale	quantity	result
C=CC[C@@]1(C)NC(=O)CNC(=O)[C@H](Cc2c[nH]c3ccccc23)NC(=O)[C@H](CC(=O)O)NC(=O)[C@H](CCC(N)=O)NC(=O)[C@H](Cc2c[nH]c3ccccc23)NC(=O)[C@H](C(C)C)NC(=O)[C@@H](NC(=O)[C@@H](NC(C)=O)[C@@H](C)CC)CSSC[C@@H](C(=O)N[C@H](C(N)=O)[C@@H](C)O)NC(=O)[C@H](CCCNC(=N)N)NC(=O)[C@H](Cc2c[nH]cn2)NC1=O	–	isocratic RP-HPLC, C18	32% acetonitrile, phosphate pH 7.4, 1% TFA	25 °C	–	log retention factor	0.136
CN1CC[C@]23c4c5ccc(O)c4O[C@H]2[C@@H](O)C=C[C@H]3[C@H]1C5	–	–	–	–	–	log k amino protonation	8.9
CC[C@H](C)[C@H](NC(C)=O)C(=O)N[C@H]1CSSC[C@@H](C(=O)N[C@H](C(N)=O)[C@@H](C)O)NC(=O)[C@H](CCCNC(=N)N)NC(=O)[C@H](Cc2cnc[nH]2)NC(=O)[C@H](Cc2cccc3ccccc23)NC(=O)CNC(=O)[C@H](Cc2c[nH]c3ccccc23)NC(=O)[C@H](CC(=O)O)NC(=O)[C@H](CCC(N)=O)NC(=O)[C@H](Cc2cn(C)c3ccccc23)NC(=O)[C@H](C(C)C)NC1=O	–	isocratic RP-HPLC	C18 column	pH 7.4, 25 °C, elution method 2	higher = more lipophilic	log retention factor	1.01
CN1CC[C@]23c4c5ccc(O)c4O[C@H]2[C@@H](O)CC[C@H]3[C@H]1C5	–	–	–	phenolate protonated	–	log k amino protonation	8.98
Clc1cc(Cl)c(-c2c(Cl)c(Cl)cc(Cl)c2Cl)cc1Cl	–	–	fresh water	20 °C, S30-1 sampler, 30 µm	–	log K(PDMS-water)	6.75 ± 0.07
CCc1cccc(C)c1N(C(=O)CCl)C(C)COC (stereo not shown)	–	SPME sorption isotherm	PBS	–	–	log Freundlich coefficient	2.32
CC[C@H](C)[C@H](NC(=O)[C@H](CO)NC(=O)[C@H](CCCNC(=N)N)NC(C)=O)C(=O)N[C@H]1CSSC[C@@H](C(=O)N[C@H](C(N)=O)[C@@H](C)O)NC(=O)[C@H](CCCNC(=N)N)NC(=O)[C@H](Cc2c[nH]cn2)NC(=O)[C@H](Cc2cccc3ccccc23)NC(=O)CNC(=O)[C@H](Cc2c[nH]c3ccccc23)NC(=O)[C@H](CC(=O)O)NC(=O)[C@H](CCC(N)=O)NC(=O)[C@H](Cc2c[nH]c3ccccc23)NC(=O)[C@H](C(C)C)NC1=O	–	isocratic RP-HPLC, C18	32% acetonitrile, phosphate pH 7.4, 1% TFA	25 °C	–	log retention factor	0.417
Cc1cc2c(cc1C)[n+]([O-])c1c(OC(=O)N3CCN(C)CC3)cccc1[n+]2[O-]	–	PAMPA	artificial membrane in PBS	50 µM, 5 h	–	log effective permeability	-4.97
Clc1ccc(Cl)c(-c2cc(Cl)ccc2Cl)c1	–	–	fresh water	20 °C, S30-1 sampler, 30 µm	–	log K(PDMS-water)	5.48 ± 0.07
CC[C@H](C)[C@H](NC(C)=O)C(=O)N[C@H]1CSSC[C@@H](C(=O)N[C@H](C(N)=O)[C@@H](C)O)NC(=O)[C@H](CCCNC(=N)N)NC(=O)[C@H](Cc2c[nH]cn2)NC(=O)[C@](C)(CC)NC(=O)CNC(=O)[C@H](Cc2c[nH]c3ccccc23)NC(=O)[C@H](CC(=O)O)NC(=O)[C@H](CCC(N)=O)NC(=O)[C@H](Cc2c[nH]c3ccccc23)NC(=O)[C@H](C(C)C)NC1=O	–	isocratic RP-HPLC	C18 column	pH 7.4, 25 °C, elution method 2	higher = more lipophilic	log retention factor	0.082
CN(C)C(=O)Oc1cccc2c1[n+]([O-])c1ccccc1[n+]2[O-]	–	PAMPA	artificial membrane in PBS	50 µM, 5 h	–	log effective permeability	-4.95
O=C1N=c2cc(Cl)c(Cl)cc2=NC1=O	Plasmodium falciparum	–	3D7	–	–	IC50	2.51 µM
Clc1cc(Cl)c(-c2ccc(Cl)c(Cl)c2Cl)cc1Cl	–	–	fresh water	20 °C, SSP sampler, 100 µm	–	log K(PDMS-water)	6.36 ± 0.04
CC[C@H](C)[C@H](NC(=O)[C@H](CCCNC(=N)N)NC(=O)[C@H](CCC(=O)O)NC(C)=O)C(=O)N[C@H]1CSSC[C@@H](C(=O)N[C@H](C(N)=O)[C@@H](C)O)NC(=O)[C@H](CCCNC(=N)N)NC(=O)[C@H](Cc2c[nH]cn2)NC(=O)[C@H](Cc2cccc3ccccc23)NC(=O)CNC(=O)[C@H](Cc2c[nH]c3ccccc23)NC(=O)[C@H](CC(=O)O)NC(=O)[C@H](CCC(N)=O)NC(=O)[C@H](Cc2cccc3ccccc23)NC(=O)[C@H](C(C)C)NC1=O	–	isocratic RP-HPLC, C18	32% acetonitrile, phosphate pH 7.4, 1% TFA	25 °C	–	log retention factor	0.514
Cc1c(C)[n+]([O-])c2c(OC(=O)N3CCN(C)CC3)cccc2[n+]1[O-]	–	PAMPA	artificial membrane in PBS	50 µM, 5 h	–	log effective permeability	-4.48
